Experimental data collected from several papers.
Each line is one published result; not all experiments were run side by side. ± marks the error that the study gave.

SMILES | tested on | assay | test system | conditions | scale | measurement | result
COc1cc2ncn(-c3cc(O[C@H](C)c4ccccc4Cl)c(C(N)=O)s3)c2cc1OC | Trypanosoma brucei | – | – | unit not given | baseline: pEC50 T. brucei minus pTC50 HepG2 | selectivity | 2.5
CN1CCN(C(=O)c2ccc([C@H]3[C@@H](F)[C@@H](F)C[C@@H](F)[C@H]3F)cc2)CC1=O | – | hepatocyte stability | cryopreserved mouse hepatocytes | 1 µM | – | hepatic clearance | 21 mL/min/kg
CC(C)C[C@@H]1NC(=O)[C@@H](Cc2ccccc2)NC(=O)[C@H](CCN)NC(=O)[C@@H](NC(=O)[C@H](CCN)NC(=O)[C@@H](N)[C@@H](C)O)CCNC(=O)[C@H]([C@@H](C)O)NC(=O)[C@H](CCN)NC(=O)[C@H](CCN)NC1=O | Escherichia coli | rifampicin MIC with synergist, checkerboard | 552100 | concentration not given, with: rifampicin | – | MIC | 0.09 µg/mL
CCCCCCCCCC(=O)N[C@@H](Cc1c[nH]c2ccccc12)C(=O)N[C@H](CC(N)=O)C(=O)N[C@@H](CC(=O)O)C(=O)N[C@@H]1C(=O)NCC(=O)N[C@@H](CCCN)C(=O)N[C@@H](CC(=O)O)C(=O)N[C@H](C)C(=O)N[C@@H](CC(=O)O)C(=O)NCC(=O)N[C@H](CO)C(=O)N[C@@H]([C@H](C)CC(=O)O)C(=O)N[C@@H](CC(=O)c2ccccc2N)C(=O)O[C@@H]1C | Staphylococcus aureus | – | SH1000 | with: menaquinone-4, molar ratio 1 | – | MIC | 1 µg/mL
CN[C@H](CC(C)C)C(=O)N[C@H]1C(=O)N[C@@H](CC(N)=O)C(=O)N[C@H]2C(=O)N[C@H]3C(=O)N[C@H](C(=O)N[C@H](C(=O)O)c4cc(O)cc(O)c4-c4cc3ccc4O)[C@H](O)c3ccc(c(Cl)c3)Oc3cc2cc(c3O[C@@H]2O[C@H](CO)[C@@H](O)[C@H](O)[C@H]2O[C@H]2C[C@](C)(N)[C@H](O)[C@H](C)O2)Oc2ccc(cc2Cl)[C@H]1O | Streptococcus pyogenes | – | erythromycin-sensitive, 21 strains | – | – | MIC | 0.41 µg/mL
Cn1cc(-c2ccc(-c3cncc(Cl)c3N3CCC4(CCNC4=O)CC3)cc2)cn1 | COLO 205 | gene expression, microarray, measured: EDN1 mRNA | – | concentration not given, 2 h | baseline: untreated cells | log2 fold change | 2.01
N=C(N)c1ccc(OCc2cccc(COc3ccc(C(=N)N)cc3)c2)cc1 | Escherichia coli | – | mcr-1 polymyxin-resistant | 20 h, compound alone | – | MIC | 200 µg/mL
CNC(C)C1CCC(N)C(OC2C(N)CC(N)C(OC3OCC(C)(O)C(NC)C3O)C2O)O1 (centres unmarked) | Salmonella enterica serovar Typhimurium | broth microdilution | clinical isolate RKI-No 437/14 | – | – | MIC | 1 µg/mL
O=C1OC[C@H]2OC(O)[C@H](O)[C@@H](O)[C@@H]2OC(=O)c2cc(O)c(O)c(O)c2-c2c(O)c(O)c3oc(=O)c4c(c(O)c(O)c5oc(=O)c2c3c54)-c2c1cc(O)c(O)c2O (mixture of isomers) | Streptococcus mutans | – | – | 24 h, 37 °C | – | MIC | 200 µg/mL
CC1(C)S[C@@H]2[C@H](NC(=O)[C@H](N)c3ccccc3)C(=O)N2[C@H]1C(=O)O | Pseudomonas aeruginosa | broth microdilution | clinical isolate RKI-No 483/15-1 | – | – | MIC | > 16 µg/mL
CN1CCN(C(=O)c2ccc([C@H]3[C@@H](F)[C@@H](F)C[C@@H](F)[C@H]3F)cc2)CC1 | – | hepatocyte stability | cryopreserved rat hepatocytes | 1 µM | – | hepatic clearance | 10 mL/min/kg
CC1(C)SC2C(NC(=O)C(NC(=O)C3=C(O)C4CCCN4C3=O)c3ccccc3)C(=O)N2C1C(=O)O (centres unmarked) | Escherichia coli | broth microdilution | BW25113 wild type | 18 h | – | MIC | 50 µg/mL
OC(Cn1cncn1)(Cn1cncn1)c1ccc(F)cc1F | Candida | – | – | twelve fungal strains | – | MIC | 6.73 µM
CC(C)CC(=O)Nc1[nH]nc2c1CN(C(=O)C1CCN(C)CC1)C2(C)C | Trypanosoma brucei | cell growth | – | – | – | EC50 | 1880 ± 332 nM
CC(=O)NC[C@H]1CN(c2ccc(N3CCOCC3)c(F)c2)C(=O)O1 | Staphylococcus aureus | – | MRSA-11 | – | – | MIC | 2 µg/mL
N=C(N)c1ccc(OCc2ccc(Br)cc2COc2ccc(C(=N)N)cc2)cc1 | Escherichia coli | – | W3110 | in combination, checkerboard, with: rifampicin | – | MIC | 6.25 µg/mL
CC1(C)SC2C(NC(=O)C(NC(=O)C3=C(O)C(c4ccccc4)NC3=O)c3ccccc3)C(=O)N2C1C(=O)O (centres unmarked) | Escherichia coli | broth microdilution | ATCC 25922 wild type | with: clavulanic acid 6 µg/mL | – | MIC | 12.5 µg/mL

For quick reference, copied from above:
SMILES | tested on | assay | test system | conditions | scale | measurement | result
OC(Cn1cncn1)(Cn1cncn1)c1ccc(F)cc1F | Candida | – | – | twelve fungal strains | – | MIC | 6.73 µM
